# Measurements collected from several papers.
# Every numbered part comes from another study and shows a few of its results, in no order. Several values in a cell are separate wells, animals, samples, runs or records.

# Set 1 — cell line: mouse MPNST tumor cells; method: high-content nuclear imaging; measured: cell number; tested at: 10 µM; time: 12 h; setting: mean of 2 replicates; baseline: plate mean; direction: higher = more cells
Compound,nuclei count
COc1ccc(N2CCN(C(CNC(=O)C3CCCCC3)c3ccc4c(c3)OCO4)CC2)cc1 (centres unmarked),0.57 z-score
COC(=O)C1=C(C)NC(C)=C(C(=O)OC2CCCN(Cc3ccccc3)C2)C1c1cccc([N+](=O)[O-])c1 (centres unmarked),0.751 z-score
Cc1cc(C)cc(-c2cnc3cc(Cl)c(-c4cccc(O)c4)cc3c2OCCCN)c1,-0.737 z-score
Cc1nc(-c2ccc(OCC(C)C)c(C#N)c2)sc1C(=O)O,2.36 z-score and 1.23 z-score
Cc1cc(NCCO)nc(-c2ccc(Br)cc2)n1,1.15 z-score
O=C(O)c1cc([N+](=O)[O-])ccc1NCCCc1ccccc1,0.45 z-score

# Set 2 — organism: Sarcocystis neurona; observed: parasite growth; tested at: 10 µM; time: 96 h; setting: first screen
Structure (SMILES),inhibition
O=C(NCCO[N+](=O)[O-])c1cccnc1,4.1%
OC(Cn1cncn1)(Cn1cncn1)c1ccc(F)cc1F,-3.1%
CC1COc2c(N3CCN(C)CC3)c(F)cc3c(=O)c(C(=O)O)cn1c23 (centres unmarked),19.7%
COc1ccc2c(c1)c(CC(=O)O)c(C)n2C(=O)c1ccc(Cl)cc1,-18.9%
Cc1ccc(C)c(OCCCC(C)(C)C(=O)O)c1,8.9%
CN(C)CCOC(c1ccc(Cl)cc1)c1ccccn1 (centres unmarked),3.5%
Nc1nc(N)nc(-c2cc(Cl)ccc2Cl)n1,-24.3%
CCN1CCC[C@H]1CNC(=O)c1cc(S(N)(=O)=O)ccc1OC,-16.2%
CS(=O)(=O)OCCCCOS(C)(=O)=O,-27.6%

# Set 3
# Structure (SMILES): COc1cc(C(=O)N2CCC(N3CCN(C)CC3)CC2)ccc1Nc1ncc2c(n1)N(C)c1ccccc1C(=O)N2C
target,test,system,conditions,inhibition
mouse PCTAIRE2 and PCTAIRE3,"probe labelling, KiNativ ATP probe",mouse brain lysate,"0.1 µM, LYS1 site",-5.8%
ATR (mouse),"probe labelling, KiNativ, measured: FYIMMCkPK peptide, ATP site",brain tissue lysate (mouse),"1 µM, with: ATP acyl-phosphate probe",3.6%
IRAK3 (human),"probe labelling, KiNativ ATP probe",human PBMC lysate,"concentration not given, LYS1 labelled site",-17.4%
MLKL (mouse),"probe labelling, KiNativ ADP probe",mouse brain lysate,"0.1 µM, LYS1 labelled site",-2.6%
WNK1/WNK2 (mouse),"probe labelling, inhibitor, KiNativ ActivX ADP probe",mouse brain lysate,"1 µM, ATP loop peptide GSFkTVYK",13.4%
PKD1 mouse,KiNativ profiling,mouse brain lysate,"1 µM, LYS1 site, with: ADP acyl phosphate probe",7.9%
MAP2K1 and MAP2K2 (mouse),"probe labelling, KiNativ, measured: DVkPSNILVNSR peptide, LYS2 site",brain tissue lysate (mouse),"1 µM, with: ATP acyl-phosphate probe",-4.1%

# Set 4 — method: CellTiter-Glo; tested at: 1 µM; setting: mean of five organoid lines; baseline: DMSO
# Cell line: normal adjacent epithelium patient-derived organoids
Structure (SMILES),viability [%]
Cc1cc(-n2nc(Cc3cc(F)cc(C(F)(F)F)c3)nc2C)ccc1C(N)=O,98.2
CCC(=O)N[C@@H]1CC[C@H](C(=O)N(C)c2ccc(-c3nc4ccccc4o3)cc2)C1,96.9
O=C1c2ccc(Nc3ccc(F)cc3F)cc2CCc2ccc(OC[C@H](O)CO)cc21,125
N#CC1(c2ccccn2)CCN(Cc2cc(C(=O)O)c(=O)n3ccccc23)CC1,107
CN(C)[C@@H]1CCN(c2cc(-c3ccccc3)nc3ccnn23)C1,113
N#CC1(c2ccccn2)CCN(Cc2cc(C(=O)N3CCCC3)c(=O)n3ccccc23)CC1,117
C[C@@]1(Cc2ccc(C#N)cc2)C(=O)N(c2cc(Cl)cc(Cl)c2)c2ncc(C(=O)NC3(c4nc(C5CCC5)no4)CC3)n21,101
O=C(NNS(=O)(=O)c1ccccc1F)c1cc(F)cc(-c2ccccn2)c1,93.9
C[C@H](c1ccc(F)cc1)N(Cc1ccc(Cl)c(C(=O)O)c1)C(=O)c1cnc2ccccc2c1,102
CNC(=O)c1cc(C(=O)N[C@H]2[C@@H]3COC[C@@H]32)cc2c1O[C@H](CF)[C@H]2c1ccccc1,100
Nc1nc(NCc2ccccc2)nc(-c2cccc(CO)c2)n1,119
Cc1c(NC(=O)c2cc(C(N)=O)nc3cc(F)ccc23)c(C(F)(F)F)nn1Cc1ccc(C#N)cc1,23.1
COc1cc(-c2cn(C3CCc4ccccc4N(CC(F)(F)F)C3=O)nn2)ccc1-n1ccc(C)n1 (centres unmarked),93.4
